Assay results collected from several papers.
Each numbered part is a random draw from the data of one study; scales do not carry over between parts.

Study 1 — technique: universal PBM; molecule type: double-stranded DNA, one strand shown; matrix: in vitro; concentration: 600 nM; reading: higher = stronger binding; measurement: E-score
Target: Sal-like protein 4, full length isoform A (SALL4, Homo sapiens, UniProt Q9UJQ4, residues 1-1053)
Chain of UniProt Q9UJQ4 (whole entry, looked up): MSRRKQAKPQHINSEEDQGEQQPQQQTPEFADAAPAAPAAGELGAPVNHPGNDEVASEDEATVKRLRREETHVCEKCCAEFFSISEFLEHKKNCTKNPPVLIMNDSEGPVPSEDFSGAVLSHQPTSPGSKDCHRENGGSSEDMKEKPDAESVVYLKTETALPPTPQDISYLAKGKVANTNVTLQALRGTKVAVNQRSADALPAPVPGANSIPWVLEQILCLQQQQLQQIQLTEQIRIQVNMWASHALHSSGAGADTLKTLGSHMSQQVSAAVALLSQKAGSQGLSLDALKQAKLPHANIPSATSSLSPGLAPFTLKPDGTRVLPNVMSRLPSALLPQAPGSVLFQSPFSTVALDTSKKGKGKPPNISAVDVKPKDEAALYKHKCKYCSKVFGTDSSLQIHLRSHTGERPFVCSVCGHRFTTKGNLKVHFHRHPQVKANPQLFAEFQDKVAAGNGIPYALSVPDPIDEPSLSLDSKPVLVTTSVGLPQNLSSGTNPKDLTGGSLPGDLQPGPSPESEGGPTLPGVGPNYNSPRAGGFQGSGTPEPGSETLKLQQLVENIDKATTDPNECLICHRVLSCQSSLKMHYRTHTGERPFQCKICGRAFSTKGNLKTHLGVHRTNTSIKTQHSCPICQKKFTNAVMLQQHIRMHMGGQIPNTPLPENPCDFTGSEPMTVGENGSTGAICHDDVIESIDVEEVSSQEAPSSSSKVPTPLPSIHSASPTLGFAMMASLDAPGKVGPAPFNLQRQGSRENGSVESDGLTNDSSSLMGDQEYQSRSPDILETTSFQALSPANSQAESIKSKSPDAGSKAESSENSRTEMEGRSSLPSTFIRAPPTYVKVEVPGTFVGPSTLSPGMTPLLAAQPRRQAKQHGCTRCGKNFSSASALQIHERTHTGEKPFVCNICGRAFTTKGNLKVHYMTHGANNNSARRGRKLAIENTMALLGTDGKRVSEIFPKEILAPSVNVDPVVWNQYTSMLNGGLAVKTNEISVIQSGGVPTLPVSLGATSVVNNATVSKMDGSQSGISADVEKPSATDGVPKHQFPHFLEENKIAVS
Notes: 8-mer, flanks averaged, mean of replicates
CAAACCAC: -0.0384
AGCCAGGG: -0.3
CTGAACTA: 0.00542
AGGGTCAG: -0.198
ATCCACGG: -0.185
GACCGGAA: -0.312
CCCAAATA: 0.0456
ACACTCTC: 0.0527
AACGTACG: 0.0367
CCGAAAAC: -0.0466
ACATACTG: 0.0473
CGACGAGC: -0.241
AGATCGGA: 0.0879
ATTTTGGA: 0.331
CATTGAAC: 0.132
AGGGTGCG: -0.302
AGTAGTCC: -0.00157
CGTTCATC: -0.0302
ACTCAGCT: -0.0482
CGGTTATC: -0.0229
ATATTCAG: 0.257
CCCTGGCA: -0.308
CGGTAAAC: 0.0536
CTCGCCCA: -0.121
CGCTCCTA: -0.0311

Study 2 — technique: RNAcompete; molecule type: RNA; matrix: in vitro; concentration: 20 nM; notes: 7-mer, probes averaged, single round; relative to: mean of 7-mers; reading: higher = stronger binding; measurement: 7-mer Z-score
Target: PABPC1L2, full length, GST fusion (mouse, UniProt A0ABA7IW68)
Target sequence (chain): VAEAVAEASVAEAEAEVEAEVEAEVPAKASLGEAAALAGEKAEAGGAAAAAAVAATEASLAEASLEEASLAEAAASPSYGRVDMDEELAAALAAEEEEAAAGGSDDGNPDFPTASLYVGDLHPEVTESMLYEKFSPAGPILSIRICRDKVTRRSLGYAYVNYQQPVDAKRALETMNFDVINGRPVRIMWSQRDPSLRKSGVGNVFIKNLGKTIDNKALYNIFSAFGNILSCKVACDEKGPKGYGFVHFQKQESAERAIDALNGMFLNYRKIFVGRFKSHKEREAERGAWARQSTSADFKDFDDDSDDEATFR
AUUGGAA: 0.215
CAAAACU: 0.948
ACGGGCC: 0.0315
UGCGCGC: -0.296
GCUGGGC: 0.037
GGCCUUG: -0.284
CCCGGUA: -0.284
GAGUAGC: -0.2
GAACUGC: -0.202
UAGCUUG: -0.171
AGGUAAU: 0.0225
GUGACCU: -0.148
AAGACCA: 0.535
AACUCCG: -0.0826
GCAGCCC: -0.179
CCAUGCG: -0.229
CAAAAGA: 2.79
UCGUCCU: -0.514
GGACCGG: 0.144
GACUGGA: 0.0895
GCCAUUA: -0.251
UGACAUA: -0.0953

Study 3 — technique: RNA Bind-n-Seq; molecule type: RNA; matrix: in vitro; concentration: 365 nM; relative to: no-protein control; reading: higher = stronger binding; measurement: RBNS enrichment (R)
Target: RNA binding protein fox-1 homolog 2, RRM domain, GST-SBP tag (RBFOX2, Homo sapiens, UniProt O43251-10, residues 100-194)
Notes: natural RNA segment, single round, ends assumed
Constant ends, left off below: GGGAGUUCUACAGUCCGACGAUC … UGGAAUUCUCGGGUGCCAA
Target sequence (chain): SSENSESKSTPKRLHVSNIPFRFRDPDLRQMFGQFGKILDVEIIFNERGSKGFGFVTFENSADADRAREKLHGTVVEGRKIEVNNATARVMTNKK
CAUCUUUAUUUUGUAAUGUGUUAAAUAAGCAUUAUAUGCUGGUAGAAUCUAGUUUAAUUGUUUCAGGUAGAAAGUAUUCUUUUGAGUUUCCAUUUUGAAUGUGUUUGGAC: 3.57
CUGCAAGCUGCAUCGUGCAACCUCUUUGGUGCCAGUGUGGGCAAGGGCUCAGCCUCUCUGCCCACAGAGUGCCCCCACGUGGAACAUUCUGGAGCUGGCCAUCCCAAAUU: 0.421
CAGUGCACACACUCCGCAGCUGUGACUCAGCCUUGUGUAGGGUCCCAAAGAAGCAAGCCUUAGAACCGAGCAGGUGAAUCUUAGAGAGUCAGCCAAGGACAGUGCAGAGU: 1.28
UUAAAGGUUUUCUCUAACUUCUCAAGUCCCUUGUUUUGUGUUGUGUCUGUGGGGAGGGGUUGUUUUGGGGUUGUUUUUGUUUUUUCUUGCCAGGUAGAUAAAACUGACAU: 3.75
UCCGCUGUGGUGGCUGCCAAGAUGCCUUCUUAAACUUAUGCAAGGAAACCAAACCCUCCCACAGUUCCCAAGCAGACACUGGAAGCAGAGGCUUCUCACCCUUCCUGCUU: 0.364
AAGAAGUUGUGGCCCUGGCCAUGUCAUCGUGUUCCUGUGUCCCCUGCAUGUACCCCACCCUCCACCCCUUCCUUUUGCGCGGACCCCAUUACAAUAAAUUUUAAAUAAAA: 2.54
ACUCAAGAUUAGUUUAAUUAAACUAACGAAUAGUUUUGGACACUUUAAAAGAGCUCUAAAUUUGCUUGUAUAUAAAGGCUUAAUAUGAGUUUUACUUGUUAGGGUCAAGG: 3.58
ACUUUCUAAAAACUGAUGGUGAAAAGCUCUUACCGAAGCAACAAAAUUCAGCAGACACCUCUUCAGCUUGAGUUCUUCACCAUCUUUUGCAACUGAAAUAUGAUGGAUAU: 0.442
GGGAGCCCCGAGGGUCUUUGCAGGAGUUGAUCUUGCUGUGUAGAGCACUAUUGUCCCGGGGUUGACCCCUGGGGCAGUUCUUGGUGGGUUCUGCUGGGCAGAACACAUGG: 0.303
AAAGGAGCCUUCUCAUCUCUGGCCGAGAACACUGCUGGGCUCCCAGGUAGCUGAAGGCCUCAGCCCACCCACUCCCUUCUUCCCUGUGUGGGGCUCAAGCCUGGUGCACU: 0.326
AUCAAAAGUGAAUAAUGUAUGAAUGAGAGCUGUAAGAAGGAUUUUUAUUUUGUUAUAAUUUAGUUACCAUUUUCAGUGUUAUUUCAAAGGUUCUUUGAAGAAUUUUGGGG: 0.693
AGAAAAAUGACCUGACCCUGUAGAGAGAACACAGUGUGAAUGUUUCCCCUCGUGUGAGCCCAGCCUGUGGUCUUCUCCGUACCCGCAACGUGGUCAUCUGUGCCCGUGAC: 0.35

Study 4 — technique: protein binding microarray; molecule type: double-stranded DNA, one strand shown; matrix: in vitro; concentration: not given; relative to: not given; reading: higher = stronger binding; measurement: E-score
Target: Histone acetyltransferase KAT6A, winged helix 2, GST fusion (KAT6A, Homo sapiens, UniProt Q92794, residues 85-181)
Notes: 8-mer, flanks averaged, mean of 2 arrays, mostly near background
Target sequence (chain): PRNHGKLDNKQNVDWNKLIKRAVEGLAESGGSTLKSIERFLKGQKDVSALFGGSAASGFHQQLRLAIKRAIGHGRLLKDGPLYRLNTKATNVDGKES
ATGTGAGG: 0.0929
CACAGATG: -0.188
ACGCCGCT: 0.122
TCTATAGA: -0.154
CACCTAGA: -0.134
GTGACGTA: -0.161
AGACGGCC: -0.0331
ATGAATGA: -0.0361
TACAAATA: -0.0702
AACCTCCT: -0.206
AGATCACG: 0.02
AACACCAT: -0.0323
CGAGAAAC: 0.0738
CAATACCC: -0.0802
CAGCTATG: 0.00754
ACGTTGGG: -0.152
ATGCTCAG: 0.0591
CAATAGCC: -0.126
GCTCACAA: 0.156
GGCGGTAA: 0.0953
GACAACGA: -0.0767
AGTTTATC: 0.0765

Study 5 — technique: aptamer microarray, sandwich; molecule type: DNA with 2'F-ANA; matrix: in vitro; concentration: 200 nM; added: Cy3 exosite-II aptamer, 400 nM; reading: higher = stronger binding; measurement: mean fluorescence intensity; oligonucleotide: GGTTGGTGTGGTTGG
Target: Prothrombin, mature alpha-thrombin (F2, Homo sapiens, UniProt P00734)
Notes: whole 15-mer aptamer, many near background
2'F-ANA at 1 3 4 5 7 9 13 15: 48.9 a.u.
2'F-ANA at 2 3 4 6 9 10 11 12 14 15: 160 a.u.
2'F-ANA at 4 5 8 9 10 12 15: 50.5 a.u.
2'F-ANA at 1 9 11 12 13 14: 60.1 a.u.
2'F-ANA at 2 3 4 5 7 8 10 14: 52.8 a.u.
2'F-ANA at 1 3 6 8 9 12 14: 110 a.u.
2'F-ANA at 1 2 4 12 13 14: 55.1 a.u.
2'F-ANA at 5 10 14: 45.1 a.u.
2'F-ANA at 6 7 8 11 12 13 14: 221 a.u.
2'F-ANA at 1 2 6 7 8 9 11 12: 245 a.u.
2'F-ANA at 1 2 3 9 10 12 13 14 15: 70.4 a.u.
2'F-ANA at 1 2 3 4 6 7 10 11 12 13: 104 a.u.
2'F-ANA at 1 3 6 9 12 15: 531 a.u.
2'F-ANA at 5 6 7 8 11 13: 60.7 a.u.
2'F-ANA at 3 6 7 9 13: 695 a.u.
2'F-ANA at 1 3 4 7 8 9 10 13 15: 62.2 a.u.
2'F-ANA at 2 3 6 9 10 12 15: 359 a.u.
2'F-ANA at 1 6 8 10 11 12 15: 63.5 a.u.
2'F-ANA at 1 3 4 6 7 8 9 10 15: 67.3 a.u.
2'F-ANA at 3 5 6 8 9 10 12 15: 61.3 a.u.
2'F-ANA at 1 2 5 6 7 8 12 13 14: 51.5 a.u.
2'F-ANA at 1 4 6 9 10 11 12 13 14: 48.3 a.u.
2'F-ANA at 3 4 5 6 8 9 10 13 14 15: 45.5 a.u.
2'F-ANA at 2 3 4 5 10 11 15: 52.1 a.u.
2'F-ANA at 1 4 6 7 8 12 13 15: 252 a.u.

For quick reference, copied from above (study 2):
GGCCUUG: -0.284
CCCGGUA: -0.284
GAGUAGC: -0.2
GAACUGC: -0.202
UAGCUUG: -0.171
AGGUAAU: 0.0225
GUGACCU: -0.148
AAGACCA: 0.535
AACUCCG: -0.0826
GCAGCCC: -0.179
CCAUGCG: -0.229
CAAAAGA: 2.79
UCGUCCU: -0.514
GGACCGG: 0.144
GACUGGA: 0.0895
GCCAUUA: -0.251
